Results from different studies.
A part holds a random share of what one study measured.

Set 1
Target: Fragile X messenger ribonucleoprotein 1, C-terminal low-complexity region (Fmr1, Mus musculus, UniProt P35922)
Method: RNA Bind-n-Seq
Form: RNA
Sample: in vitro
Tested at: 200 nM
Notes: whole 134-nt RNA, ends assumed
Together with: 150 mM KCl
Relative to: input library
Reading: higher = stronger binding
Shared flanks, not repeated: GGGAGUUCUACAGUCCGACGAUC … UGGAAUUCUCGGGUGUCAAGG
Oligonucleotide | log2 enrichment
UAACUUUAGAUGAGGAUCUGAUGGAUAUGGCAGUGGACGUGGAUUUGGGGAUGGCUAUAAUGGGUAUGGAGGAGGACCUGGAGGUGGCAA | 0.204
GAAGAUUGGCUUAAAAUGGCUACUGUGAUGGGAACAGUGUCUUAGGGAGAUGCAGCUUGGACUUGAGGUAAAUUGAAUACUUUACAACUG | 0.0226
CUGUGCUACACAUCGUAUGUACCGAAUCGGGCCCCCCCGGGGCCCCCCCGGGCCCCCCCGGAAAGUAUUAUGUUACGCCGUUCGGAUCUG | -1.04
UGGCCCUGGUGGCAUGCGGGGAGGAAGAGGUGGCCUCAUCGAUCGUGGUGGUCCCGGUGGAAUGUUCAGAGGUGGCCGUGGUGGAGACAG | 0.0365
CACAGACAACACGCACCCACACAGACCCAGAGGGAAGGGGUUGGGAUGGGGACAGGGUGCACAGCAGGGCGGGGUAGGACCCCAGCCCCU | 1.31
UAGAGACUUCAGAUGGAUUUUAAAAUUGAACACACUUGGGAUGGUUUUCCAGUGAAGCAUGAGCCCGUAUUUAUCAGGCUGAAUCCAGGU | -1.16
UCCUCAAGUCCUGUGCUACACAUCGUAUGUACCGAAUCGGUGGGGUGGUGGAAAGUAUUAUGUUACGCCGUUCGGAUCUGCACUUCCAGC | -0.306
GUCCUGUGCUACACAUCGUAUGUACCGAAUCGGGGUUUGGGGUUUUUGGGGAAAGGGGAAAGUAUUAUGUUACGCCGUUCGGAUCUGCAC | 0.877
CAAGUCCUGUGCUACACAUCGUAUGUACCGAAUCGGGAAAAGGAAAAGGGAAAAGGAAAGUAUUAUGUUACGCCGUUCGGAUCUGCACUU | -0.772

Set 2
Target: Interferon regulatory factor 7, full length, phosphomimetic (IRF7, Homo sapiens, UniProt Q92985, residues 1-503, S471D/S472D/S475D/S476D/S477D/S483D/S484D/S487D)
Method: protein-binding microarray
Form: double-stranded DNA, one strand shown
Sample: in vitro
Tested at: 2200 nM top
Notes: 60-bp whole probe
Together with: salmon DNA 0.4 mg/ml
Relative to: random background probes
Reading: higher = stronger binding
Shared flanks, not repeated: GCCTAGCAC … GTCTTGATTCGCTTGACGCTGCTG
Residues (chain): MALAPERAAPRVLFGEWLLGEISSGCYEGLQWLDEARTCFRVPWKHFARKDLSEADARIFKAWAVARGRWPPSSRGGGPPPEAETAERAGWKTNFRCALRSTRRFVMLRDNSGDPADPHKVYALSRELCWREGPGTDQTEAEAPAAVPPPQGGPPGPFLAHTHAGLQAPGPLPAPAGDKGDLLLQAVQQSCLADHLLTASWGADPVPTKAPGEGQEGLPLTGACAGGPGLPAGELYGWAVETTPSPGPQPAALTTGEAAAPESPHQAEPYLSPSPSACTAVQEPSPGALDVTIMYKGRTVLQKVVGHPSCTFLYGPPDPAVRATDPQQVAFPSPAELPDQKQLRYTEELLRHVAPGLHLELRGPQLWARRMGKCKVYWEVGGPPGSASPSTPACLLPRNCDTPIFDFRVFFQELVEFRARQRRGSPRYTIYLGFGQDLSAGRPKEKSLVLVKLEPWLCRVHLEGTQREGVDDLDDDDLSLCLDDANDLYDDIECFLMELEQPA
Oligonucleotide | fitted relative affinity
TTAGATCTCAGTCGCGATTAGTGCTAG | 0.0922 z-score
TCAAAATTAGTGTTTGCCACTGTGCTA | -0.272 z-score
TTAGGTATCGGACTGGGCTAGTGCTAG | -0.316 z-score
GACGATTCCAGTTTCGATACGTGCTAG | 5.72 z-score
TCAGGTTCCGGTTTCGGTTAGTGCTAG | 9.2 z-score
GACGGTCTCCTTTTCCTGGCGTGCTAG | 1.27 z-score
TTAGATATTAGTTTCGATTAGTGCTAG | 6.46 z-score
TCATCATTGCATATAGAACTGTGCTAG | 0.684 z-score
GACGGAATGGACACTGGGGACGTGCTA | -0.693 z-score
TCAAGTCTTGTTTTACAACTGTGCTAG | 0.955 z-score
TTAGATCTCAGTAGCGATTAGTGCTAG | -0.36 z-score
GACGGTTTCCGGTTTCGGGACGTGCTA | 6.91 z-score
GACGGTATCGGTACCGGGACGTGCTAG | 0.337 z-score
GTGTATATGTGATTAAAATAGTGCTAG | 0.451 z-score
TCAATTCTGAATTCGAAACTGTGCTAG | 0.925 z-score
GACGATTTCGGGTTGCGAGACGTGCTA | 6.05 z-score
GACGATTTCAGTACCGAGACGTGCTAG | 0.692 z-score
GGCCTCTCTGTTTTCCTGTTGTGCTAG | 2.88 z-score
TTAGATTCGAGTTTCGATTAGTGCTAG | 6.19 z-score

Set 3
Target: RNA binding protein fox-1 homolog 2, RRM domain, GST-SBP tag (RBFOX2, Homo sapiens, UniProt O43251-10, residues 100-194)
Method: RNA Bind-n-Seq
Form: RNA
Sample: in vitro
Tested at: 365 nM
Notes: natural RNA segment, single round, ends assumed
Relative to: no-protein control
Reading: higher = stronger binding
Shared flanks, not repeated: GGGAGUUCUACAGUCCGACGAUC … UGGAAUUCUCGGGUGCCAA
Target sequence (chain): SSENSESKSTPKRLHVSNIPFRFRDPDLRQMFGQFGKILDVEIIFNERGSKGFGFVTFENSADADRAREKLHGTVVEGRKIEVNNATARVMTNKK
Oligonucleotide | RBNS enrichment (R)
CAUGAGGAGAAAAAAAGCAUGUGUCAUGCAUGAAGGAAACUGAACUUGAGGUGGCCUCCUUGCUUGUUACAUACCUGGGUAUGUGUAGGCAGUUUAGUGCAUCUUUGCCU | 8.69
UAAUCCACUGUGCUGUGGCUCGCUGACCACUGUGUCCUUGUCAUGGACACCAGUGACCAUGCACAGUUGUGUUCCUUGCAUUCUAAGUCAGUGGAGGGAAGCAGAGCUUU | 0.29
UACUUGAAAAAUUAAUUGUAUGAUGUAUGAGAAGACAGAGUCUCCUAGUUUUGUAUCUUGUUGUAUGACUGCCAUGAGUUCCACCAGAAAGCCACUCUAUUUUGGUCUCU | 2
AUCUUCUUUGACCCUUAUGACUGAAAGAUCAUCAGUUUGGAAGGUACUGGUCCAAUUUAUUUAGGAAGUAUCUCUUGGAGUUUCAGAAAUGCUAGCUUGGACAACUGAAA | 0.949
CAGAUCCCGAAUCUAGAUUCCCAGUUCUAAGGCCUUAUCACCUCCCCUGCCCAUAGGCCAACAACCAUAGUUCCUCACAUUAGUGAUUAGCAGACUCUUUGUGGACGAGU | 0.406
UUGGGUAUAUACCCAGUAAUGGGAUGGCUGGGUCAAAUGGUAUUUCUAGUUCUAGAUCCCUGAGGAAUCGCCACACUGACUUCCACAAUGGUUAAACUAAAGAGCUUCUG | 0.325
CCCCAUCAAAAAAAAAAAUGGAUACAUGGUUAAAGGAUAGAAGGGCAAUAUUUUAUCAUAUGUUCUAAAAGAGAAGGAAGAGAAAAUACUACUUUCUCAAAAUGGAAGCC | 0.5
CUUCUGAGAGGCAAUGUGAAAGAGGAAGUAUUACUUUUUAUGUACAGAGUUAUUUAUUUAUAGAAAUUUUGGUACAGUGUACAUUGAAAACAUGUAAAAUAUUGAAGUGU | 0.829

Set 4
Target: Histone acetyltransferase KAT6A, winged helix 1, GST fusion (KAT6A, Homo sapiens, UniProt Q92794, residues 1-85)
Method: protein binding microarray
Form: double-stranded DNA, one strand shown
Sample: in vitro
Tested at: not given
Notes: 8-mer, flanks averaged, mean of 2 arrays, mostly near background
Relative to: not given
Reading: higher = stronger binding
Residues (chain): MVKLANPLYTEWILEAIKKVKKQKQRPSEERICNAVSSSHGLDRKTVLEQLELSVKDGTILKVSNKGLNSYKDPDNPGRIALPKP
Oligonucleotide | E-score
CGTAGTAC | 0.153
AATTGTAT | -0.163
ACAAGCAC | 0.0622
AACAGTGA | -0.0646
CCGTTACC | 0.145
CTTAGACC | -0.221
AGTACGCC | 0.208
CATCCGGA | 0.0774
ACGAGGCT | -0.137
GGACCTAC | -0.0335
ACGGAAGC | 0.195
ACATTAAG | -0.178
GCTAGGTA | -0.0287
CAGCCGAA | 0.0126
TCACGGCA | 0.355
GGATGCTA | -0.0229
GTCACGCA | 0.0722
CCCCCAAG | -0.296
ACTTATGG | -0.146
CATAGAGC | 0.0382
GTGTCGGA | 0.068
AGCATTTA | -0.141
GCCGCTCA | 0.394
CATGCACC | 0.0561
CTTGGGTA | -0.132

A few entries again (set 2):
Oligonucleotide | fitted relative affinity
TTAGATCTCAGTCGCGATTAGTGCTAG | 0.0922 z-score
TCATCATTGCATATAGAACTGTGCTAG | 0.684 z-score
TTAGATCTCAGTAGCGATTAGTGCTAG | -0.36 z-score
TCAAGTCTTGTTTTACAACTGTGCTAG | 0.955 z-score
GACGGTCTCCTTTTCCTGGCGTGCTAG | 1.27 z-score
TCAATTCTGAATTCGAAACTGTGCTAG | 0.925 z-score
